Published values from different studies.
A part holds a random share of what one study measured.
UniProt P47898, sequence (whole entry, looked up): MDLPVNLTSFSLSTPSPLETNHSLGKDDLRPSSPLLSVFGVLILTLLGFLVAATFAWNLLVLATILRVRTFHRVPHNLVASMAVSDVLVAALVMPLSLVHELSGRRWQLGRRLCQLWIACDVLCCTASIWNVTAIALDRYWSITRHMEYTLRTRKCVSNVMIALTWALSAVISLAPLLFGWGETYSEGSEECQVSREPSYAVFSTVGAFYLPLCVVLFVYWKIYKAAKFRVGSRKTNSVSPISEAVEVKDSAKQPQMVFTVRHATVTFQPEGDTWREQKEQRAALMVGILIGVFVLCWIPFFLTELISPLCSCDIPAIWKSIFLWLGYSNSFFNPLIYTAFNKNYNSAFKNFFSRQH

Study 1 — concentration: 50 µM; measurement: inhibition
Target: Bromodomain-containing protein 4, BD1 (BRD4, Homo sapiens, UniProt O60885)
Clc1ccc(Nc2nnc(Cc3ccncc3)c3ccccc23)cc1: 20.6%
C=CC(=O)Nc1cc2c(Nc3ccc(F)c(Cl)c3)ncnc2cc1OCCCN1CCOCC1: -13.8%
O=C(Nc1ccc2[nH]nc(-c3ccncc3)c2c1)[C@@H]1CCN(CC(=O)N2CCN(c3ccc(-c4ncccn4)cc3)CC2)C1: 85.5%
COc1cccc2cc(-c3nc([C@H]4CC[C@H](C(=O)O)CC4)n4ncnc(N)c34)[nH]c12: 2.15%
COc1ccc2[nH]c([S+]([O-])Cc3ncc(C)c(OC)c3C)nc2n1 (stereo not drawn): 5.05%
COc1cc(Nc2ncc(F)c(Nc3ccc4c(n3)N(COP(=O)(O)O)C(=O)C(C)(C)O4)n2)cc(OC)c1OC: -22.4%
N#CC1(c2ccc(NC(=O)c3cccnc3NCc3ccncc3)cc2)CCCC1: 13.8%

Study 2 — observed: enzyme activity; mode: inhibitor; concentration: 10 µM; measurement: inhibition
Target: Calcium/calmodulin-dependent protein kinase type II subunit alpha (CAMK2A, Homo sapiens, UniProt Q9UQM7)
UniProt Q9UQM7, sequence (whole entry, looked up): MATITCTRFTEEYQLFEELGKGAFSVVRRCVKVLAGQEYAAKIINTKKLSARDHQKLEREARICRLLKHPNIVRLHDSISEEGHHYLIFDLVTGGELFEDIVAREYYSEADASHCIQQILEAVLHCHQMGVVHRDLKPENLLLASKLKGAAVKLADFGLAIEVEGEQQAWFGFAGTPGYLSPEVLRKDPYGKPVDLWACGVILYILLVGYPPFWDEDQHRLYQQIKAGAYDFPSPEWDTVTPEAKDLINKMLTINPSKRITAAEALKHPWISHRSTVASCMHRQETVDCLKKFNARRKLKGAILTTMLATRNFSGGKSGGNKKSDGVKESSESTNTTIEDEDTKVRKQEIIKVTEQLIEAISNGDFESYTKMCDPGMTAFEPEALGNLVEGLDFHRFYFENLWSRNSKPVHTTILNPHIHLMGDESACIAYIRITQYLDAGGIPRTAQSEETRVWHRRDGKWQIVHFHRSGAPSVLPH
CCC/C=C\C=C\CCCCCCCCCO: 2%
COc1ccc(-c2oc3c(CCC(C)(C)O)c(O)cc(O)c3c(=O)c2O)cc1: -5%
N=C(N)NC(=N)N1CCOCC1: 4%
CCCCCCCCCCCCCCCC(=O)OCC: -18%
COc1cc(C[C@H]2COC(=O)[C@@H]2Cc2ccc(O)c(OC)c2)ccc1O: 7%
OC[C@H]1O[C@@](CO)(OC[C@@]2(OC[C@@]3(OC[C@@]4(OC[C@@]5(OC[C@@]6(O[C@H]7O[C@H](CO)[C@@H](O)[C@H](O)[C@H]7O)O[C@H](CO)[C@@H](O)[C@@H]6O)O[C@H](CO)[C@@H](O)[C@@H]5O)O[C@H](CO)[C@@H](O)[C@@H]4O)O[C@H](CO)[C@@H](O)[C@@H]3O)O[C@H](CO)[C@@H](O)[C@@H]2O)[C@@H](O)[C@@H]1O: -4%
C[C@@H]1CC[C@]2(C(=O)O[C@@H]3O[C@H](CO)[C@@H](O)[C@H](O)[C@H]3O)CC[C@]3(C)C(=CC[C@@H]4[C@@]5(C)CC[C@H](O)[C@](C)(C(=O)O)[C@@H]5CC[C@]43C)[C@@H]2[C@]1(C)O: 0%

Study 3 — host: human; matrix: microsomes or S9; concentration: 2 µM; time: 0.5 h; measurement: remaining compound
N[C@@H](CC(=O)N1CCCCCN1C(=O)CN1CCc2ccccc2C1)Cc1cc(F)c(F)cc1F: 11.3%
CN(C)C(CN1C(O)=c2ccccc2=NC12C(=O)Nc1ccccc12)c1ccccc1 (stereo not drawn): 4.54%
COc1ccccc1Nc1ccc(-n2ccnc2-c2ccncc2)cc1: 72.6%
CCC(C)(CNC(=O)c1sc(-c2c(C)noc2C)nc1C)OC (stereo not drawn): 87.5%
COc1ccc(NC(=O)CCc2c(C)n(Cc3ccccc3)c3nc(-c4ccccc4)nn3c2=O)cc1: 16.9%
Cc1ccc(S(=O)(=O)c2c(-c3ccccc3)n(C#Cc3ccccc3)c3ccccc23)cc1: 38.5%
Cc1noc(C)c1Cc1c(C(=O)N2CCC(Cc3nc(C4CCOCC4)no3)CC2)noc1C: 1.36%
CN(Cc1cccnc1)C(=O)c1c(OCC2CC2)cc(=O)n2c1CCCCC2: 50.5%
CCCNC(=O)NC(=O)CNC1(C(=O)OC(C)(C)C)CCCC1: 1.91%

Single results of other studies
CC(C)CC(=O)N1CCc2nc(-c3ccc(Br)cc3)nc(N(C)Cc3ccccc3)c2C1
inhibition (5-hydroxytryptamine receptor 5A (HTR5A, Homo sapiens, UniProt P47898); ligand displacement; 10 µM): -10.3%

Excerpt of the above (study 1):
C=CC(=O)Nc1cc2c(Nc3ccc(F)c(Cl)c3)ncnc2cc1OCCCN1CCOCC1: -13.8%
O=C(Nc1ccc2[nH]nc(-c3ccncc3)c2c1)[C@@H]1CCN(CC(=O)N2CCN(c3ccc(-c4ncccn4)cc3)CC2)C1: 85.5%
COc1cccc2cc(-c3nc([C@H]4CC[C@H](C(=O)O)CC4)n4ncnc(N)c34)[nH]c12: 2.15%
